Published values from different studies.
Every numbered part comes from another study and shows a few of its results, in no order. “And” joins repeats or separate records; there may be more than shown. Substitutions count along the parent as printed. pEC50: −log10 of the molar value.
Sequence of UniProt P53667 (whole entry, looked up): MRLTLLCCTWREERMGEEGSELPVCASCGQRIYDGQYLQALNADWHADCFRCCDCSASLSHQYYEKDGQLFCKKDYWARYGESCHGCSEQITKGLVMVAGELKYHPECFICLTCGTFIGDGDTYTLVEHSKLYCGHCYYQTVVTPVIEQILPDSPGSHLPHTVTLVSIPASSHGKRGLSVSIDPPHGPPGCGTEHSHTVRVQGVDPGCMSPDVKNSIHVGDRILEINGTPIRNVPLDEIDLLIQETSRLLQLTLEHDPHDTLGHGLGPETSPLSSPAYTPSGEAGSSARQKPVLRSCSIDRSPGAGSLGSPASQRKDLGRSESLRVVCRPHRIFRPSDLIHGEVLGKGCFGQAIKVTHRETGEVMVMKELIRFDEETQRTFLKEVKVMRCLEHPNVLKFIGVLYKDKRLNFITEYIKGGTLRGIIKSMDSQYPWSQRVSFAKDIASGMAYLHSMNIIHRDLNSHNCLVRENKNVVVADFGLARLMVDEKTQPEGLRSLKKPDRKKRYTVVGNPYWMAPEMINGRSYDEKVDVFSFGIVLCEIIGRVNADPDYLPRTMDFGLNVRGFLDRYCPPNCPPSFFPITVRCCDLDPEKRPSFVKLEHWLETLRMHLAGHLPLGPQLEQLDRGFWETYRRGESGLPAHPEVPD
Sequence of UniProt Q86Z02 (whole entry, looked up): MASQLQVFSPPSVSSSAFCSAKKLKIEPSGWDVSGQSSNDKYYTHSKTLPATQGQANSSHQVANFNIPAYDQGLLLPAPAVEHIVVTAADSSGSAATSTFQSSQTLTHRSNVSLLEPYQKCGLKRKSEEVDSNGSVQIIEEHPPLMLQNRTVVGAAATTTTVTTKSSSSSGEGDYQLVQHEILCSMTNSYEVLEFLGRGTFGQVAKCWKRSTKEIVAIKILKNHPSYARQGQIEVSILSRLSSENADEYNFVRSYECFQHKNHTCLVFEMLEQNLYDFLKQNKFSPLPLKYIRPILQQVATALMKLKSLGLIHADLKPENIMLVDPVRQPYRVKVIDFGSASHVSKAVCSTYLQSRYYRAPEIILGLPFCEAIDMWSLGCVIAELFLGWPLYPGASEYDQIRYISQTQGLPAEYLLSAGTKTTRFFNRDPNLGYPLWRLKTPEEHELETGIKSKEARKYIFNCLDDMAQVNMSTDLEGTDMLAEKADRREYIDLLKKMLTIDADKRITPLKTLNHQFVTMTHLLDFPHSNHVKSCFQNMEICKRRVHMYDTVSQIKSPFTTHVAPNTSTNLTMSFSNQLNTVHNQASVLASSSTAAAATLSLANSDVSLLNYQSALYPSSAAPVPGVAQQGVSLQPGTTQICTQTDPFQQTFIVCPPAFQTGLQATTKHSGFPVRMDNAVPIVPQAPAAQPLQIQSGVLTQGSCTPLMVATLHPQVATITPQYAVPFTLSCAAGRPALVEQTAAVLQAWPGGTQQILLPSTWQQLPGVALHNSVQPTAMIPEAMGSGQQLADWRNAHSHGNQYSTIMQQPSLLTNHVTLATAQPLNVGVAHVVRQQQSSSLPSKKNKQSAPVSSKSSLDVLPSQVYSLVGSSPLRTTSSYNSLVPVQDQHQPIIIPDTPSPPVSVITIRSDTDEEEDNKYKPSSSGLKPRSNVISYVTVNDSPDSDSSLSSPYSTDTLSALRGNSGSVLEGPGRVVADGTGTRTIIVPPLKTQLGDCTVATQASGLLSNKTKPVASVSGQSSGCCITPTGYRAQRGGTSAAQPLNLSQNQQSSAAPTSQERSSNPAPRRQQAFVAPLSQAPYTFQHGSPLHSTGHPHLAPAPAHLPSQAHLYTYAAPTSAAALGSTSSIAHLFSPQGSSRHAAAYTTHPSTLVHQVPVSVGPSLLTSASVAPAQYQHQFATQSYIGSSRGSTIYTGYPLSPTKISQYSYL
Sequence of UniProt P06213 (whole entry, looked up): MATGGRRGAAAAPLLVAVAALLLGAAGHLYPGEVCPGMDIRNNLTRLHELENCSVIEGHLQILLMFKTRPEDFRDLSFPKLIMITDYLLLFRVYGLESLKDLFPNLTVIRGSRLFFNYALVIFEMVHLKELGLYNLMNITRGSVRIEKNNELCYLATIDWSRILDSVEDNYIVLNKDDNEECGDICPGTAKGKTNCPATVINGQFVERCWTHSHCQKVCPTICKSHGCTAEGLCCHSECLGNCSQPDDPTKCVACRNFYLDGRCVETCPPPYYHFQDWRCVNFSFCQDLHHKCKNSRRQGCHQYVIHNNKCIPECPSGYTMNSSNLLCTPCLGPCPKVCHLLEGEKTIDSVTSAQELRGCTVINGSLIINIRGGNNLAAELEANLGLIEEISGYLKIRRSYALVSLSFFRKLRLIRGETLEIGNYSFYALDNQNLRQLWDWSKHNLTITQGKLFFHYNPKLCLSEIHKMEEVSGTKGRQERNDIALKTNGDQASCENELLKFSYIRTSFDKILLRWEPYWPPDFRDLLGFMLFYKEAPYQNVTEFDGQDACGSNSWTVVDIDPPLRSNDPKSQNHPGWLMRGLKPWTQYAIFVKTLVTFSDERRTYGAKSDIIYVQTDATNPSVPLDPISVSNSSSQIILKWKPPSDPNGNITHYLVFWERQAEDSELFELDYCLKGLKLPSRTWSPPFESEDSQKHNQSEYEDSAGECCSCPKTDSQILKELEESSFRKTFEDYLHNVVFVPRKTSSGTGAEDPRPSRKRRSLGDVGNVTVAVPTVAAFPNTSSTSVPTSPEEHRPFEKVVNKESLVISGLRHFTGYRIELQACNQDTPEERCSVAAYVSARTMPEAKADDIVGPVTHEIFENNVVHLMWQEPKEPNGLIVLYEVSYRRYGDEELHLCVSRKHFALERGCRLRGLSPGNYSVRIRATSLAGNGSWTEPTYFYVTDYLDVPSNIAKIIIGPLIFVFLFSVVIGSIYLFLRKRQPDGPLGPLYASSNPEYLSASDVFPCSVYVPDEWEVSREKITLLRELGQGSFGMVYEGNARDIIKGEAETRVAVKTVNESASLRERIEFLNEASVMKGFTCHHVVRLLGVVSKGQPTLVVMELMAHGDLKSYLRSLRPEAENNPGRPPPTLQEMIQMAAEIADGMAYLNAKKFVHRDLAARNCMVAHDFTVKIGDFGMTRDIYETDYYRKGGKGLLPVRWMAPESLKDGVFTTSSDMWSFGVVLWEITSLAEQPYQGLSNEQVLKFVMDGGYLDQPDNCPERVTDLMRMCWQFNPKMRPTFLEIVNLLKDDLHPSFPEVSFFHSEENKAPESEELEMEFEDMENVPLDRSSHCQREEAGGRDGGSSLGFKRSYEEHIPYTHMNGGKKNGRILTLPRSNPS
Sequence of UniProt P31749 (whole entry, looked up): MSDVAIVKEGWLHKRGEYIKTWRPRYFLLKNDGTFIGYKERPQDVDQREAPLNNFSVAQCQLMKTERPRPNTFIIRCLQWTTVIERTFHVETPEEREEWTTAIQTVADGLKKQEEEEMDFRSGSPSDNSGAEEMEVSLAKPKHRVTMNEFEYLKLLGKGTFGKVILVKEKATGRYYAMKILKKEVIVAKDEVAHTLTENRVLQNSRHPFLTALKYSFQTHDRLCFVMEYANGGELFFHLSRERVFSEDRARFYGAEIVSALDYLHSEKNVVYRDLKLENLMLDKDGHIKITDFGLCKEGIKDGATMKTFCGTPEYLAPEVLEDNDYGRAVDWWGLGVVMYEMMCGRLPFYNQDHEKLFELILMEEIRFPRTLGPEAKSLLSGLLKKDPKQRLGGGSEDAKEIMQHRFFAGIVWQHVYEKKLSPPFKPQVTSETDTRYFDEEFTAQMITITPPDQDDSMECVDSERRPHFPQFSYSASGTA
Sequence of UniProt P42679 (whole entry, looked up): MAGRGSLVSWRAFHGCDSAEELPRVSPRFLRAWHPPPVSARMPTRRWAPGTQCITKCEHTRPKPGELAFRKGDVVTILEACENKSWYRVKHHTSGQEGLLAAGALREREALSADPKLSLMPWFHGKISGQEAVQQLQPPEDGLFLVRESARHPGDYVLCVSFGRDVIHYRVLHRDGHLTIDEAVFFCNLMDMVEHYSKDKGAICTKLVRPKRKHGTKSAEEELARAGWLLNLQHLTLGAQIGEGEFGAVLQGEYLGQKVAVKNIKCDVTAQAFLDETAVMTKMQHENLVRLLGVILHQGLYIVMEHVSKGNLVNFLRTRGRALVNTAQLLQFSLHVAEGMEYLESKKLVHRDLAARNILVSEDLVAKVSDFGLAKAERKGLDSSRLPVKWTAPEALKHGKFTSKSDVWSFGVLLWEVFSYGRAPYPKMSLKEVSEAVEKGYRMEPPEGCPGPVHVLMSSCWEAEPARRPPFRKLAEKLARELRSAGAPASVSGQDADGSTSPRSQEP
Sequence of UniProt P51817 (whole entry, looked up): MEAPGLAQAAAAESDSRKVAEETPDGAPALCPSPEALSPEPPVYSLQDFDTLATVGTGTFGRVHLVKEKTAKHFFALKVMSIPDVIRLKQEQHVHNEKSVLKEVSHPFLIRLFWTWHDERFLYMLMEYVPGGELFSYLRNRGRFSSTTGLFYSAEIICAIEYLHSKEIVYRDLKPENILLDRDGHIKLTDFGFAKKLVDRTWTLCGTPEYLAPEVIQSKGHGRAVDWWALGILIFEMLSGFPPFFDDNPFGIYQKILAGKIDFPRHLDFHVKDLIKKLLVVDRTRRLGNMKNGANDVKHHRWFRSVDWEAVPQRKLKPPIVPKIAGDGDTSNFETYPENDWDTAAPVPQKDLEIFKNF

Block 1 — method: protein-binding microarray; form: double-stranded DNA, one strand shown; matrix: in vitro; tested at: 2540 nM top; notes: 60-bp whole probe; together with: salmon DNA 0.4 mg/ml; relative to: random background probes; reading: higher = stronger binding; constant ends, left off below: GCCTAGCAC … GTCTTGATTCGCTTGACGCTGCTG
Target: Interferon regulatory factor 3, full length, phosphomimetic (IRF3, Homo sapiens, UniProt Q14653, residues 1-427, S386D/S396D/S398D/S402D/T404D/S405D)
Sequence of UniProt Q14653 (whole entry, unmodified, looked up): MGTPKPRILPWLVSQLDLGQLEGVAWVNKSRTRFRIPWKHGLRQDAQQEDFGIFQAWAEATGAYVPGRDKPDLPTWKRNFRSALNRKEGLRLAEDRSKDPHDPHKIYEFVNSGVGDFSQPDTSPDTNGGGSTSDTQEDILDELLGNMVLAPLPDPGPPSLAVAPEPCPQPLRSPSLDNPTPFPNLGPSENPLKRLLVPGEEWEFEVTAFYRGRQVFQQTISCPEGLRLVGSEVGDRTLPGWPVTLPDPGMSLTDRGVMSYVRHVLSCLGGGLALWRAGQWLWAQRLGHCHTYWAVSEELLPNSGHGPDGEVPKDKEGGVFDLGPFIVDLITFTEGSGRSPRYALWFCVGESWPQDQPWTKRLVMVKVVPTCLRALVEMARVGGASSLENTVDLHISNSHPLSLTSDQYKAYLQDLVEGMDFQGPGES
`TCATATTTTAATCACATACTGTGCTAG` — result for “fitted relative affinity”: 0.864 z-score.
`TGAGGTTTCGGTCTCGGTTAGTGCTAG`: “fitted relative affinity” 8.18 z-score.
Under “fitted relative affinity”, `GACGGACTGGACTTTCGAGACGTGCTA` is recorded as -0.175 z-score.
Under “fitted relative affinity”, `GACGGATTCCTACTGCTGACGTGCTAG` is recorded as 1.59 z-score.
Under “fitted relative affinity”, `TTAGGTATACTACTGCTTTAGTGCTAG` is recorded as -0.0981 z-score.
`GACGGTTCCGGTTTAGGGACGTGCTAG`: “fitted relative affinity” 4.18 z-score.
Under “fitted relative affinity”, `TCAGATATAAATGTAACACTGTGCTAG` is recorded as 0.255 z-score.
`GACAGTTTCGGTCTCGGGACGTGCTAG`: “fitted relative affinity” 8.93 z-score.

Block 2 — target: CEP164, C-terminal peptide (human); method: DHFR complementation, deep sequencing; matrix: yeast; relative to: wild type; reading: higher = weaker binding
Notes: single substitutions, model-inferred values
Starting sequence: PDZK1, PDZ domain 2 (human); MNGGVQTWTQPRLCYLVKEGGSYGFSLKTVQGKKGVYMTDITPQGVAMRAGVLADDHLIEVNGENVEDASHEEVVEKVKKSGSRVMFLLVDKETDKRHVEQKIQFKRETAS; partner HNRVKVYRF
Under “binding free energy change”, `I103M` is recorded as -0.105 kcal/mol.
Under “binding free energy change”, `W8H` is recorded as -0.283 kcal/mol.
For `E60K`, “binding free energy change” read 0.38 kcal/mol.
For `G3N`, “binding free energy change” read -0.079 kcal/mol.
`K79T` — result for “binding free energy change”: 0.261 kcal/mol.
`G82P` — result for “binding free energy change”: 0.285 kcal/mol.
For `E60S`, “binding free energy change” read 0.192 kcal/mol.
For `D95G`, “binding free energy change” read -0.115 kcal/mol.

Block 3 — SMILES: COc1cc2ncc(-c3ccccc3)nc2cc1OC; effect on: enzyme activity; action: inhibitor; tested at: 0.5 µM; relative to: control
The remaining activity was 94.1% (ALK (Homo sapiens, UniProt Q9UM73)).
STK25 (Homo sapiens, UniProt O00506) — remaining activity: 90.7%.
For AKT1 (Homo sapiens, UniProt P31749): remaining activity read 99.2%.
The remaining activity was 101% (MATK (Homo sapiens, UniProt P42679)).
For FLT4 (Homo sapiens, UniProt P35916): remaining activity read 90.4%.
For CDC42BPA (Homo sapiens, UniProt Q5VT25): remaining activity read 85.4%.
The remaining activity was 88.9% (TAOK3 (Homo sapiens, UniProt Q9H2K8)).
The remaining activity was 100% (FYN (Homo sapiens, UniProt P06241)).
For PASK (Homo sapiens, UniProt Q96RG2): remaining activity read 98.9%.
The remaining activity was 77.7% (LIM domain kinase 1 (LIMK1, Homo sapiens, UniProt P53667)).
The remaining activity was 89.3% (NLK (Homo sapiens, UniProt Q9UBE8)).
It gave 80% for remaining activity (FER (Homo sapiens, UniProt P16591)).
NEK11 (Homo sapiens, UniProt Q8NG66) — remaining activity: 114%.
The remaining activity was 98.2% (MARK3 (Homo sapiens, UniProt P27448)).
For ITK (Homo sapiens, UniProt Q08881): remaining activity read 97.8%.
The remaining activity was 85.4% (FGR (Homo sapiens, UniProt P09769)).
For Insulin receptor (INSR, Homo sapiens, UniProt P06213): remaining activity read 89.1%.
It gave 83.8% for remaining activity (Cyclin-dependent kinase 3, with cyclin E (CDK3, Homo sapiens, UniProt Q00526)).
It gave 104% for remaining activity (PKN1 (Homo sapiens, UniProt Q16512)).
PRKX (Homo sapiens, UniProt P51817) — remaining activity: 97.4%.
The remaining activity was 96.1% (SRC (Homo sapiens, UniProt P12931)).
HIPK1 (Homo sapiens, UniProt Q86Z02) — remaining activity: 93.4%.

Other studies, line by line
For `CN(c1ccnc(CNc2nc(Nc3ccc4c(c3)CC(=O)N4)ncc2C(F)(F)F)n1)S(C)(=O)=O`, the pEC50 was 5.49 (PTK2 (Homo sapiens, UniProt Q05397); target engagement in cells, BRET).
`PLRG1 (Homo sapiens, UniProt O43660)` — result for cross-linked residues: “K363 to S154” (SNW1 (Homo sapiens, UniProt Q13573); cross-linking MS; cell fractions; together with: DSSO).
The viability of `CCC(=O)N[C@H]1CC[C@@H](C(=O)N(C)c2ccc(-c3nc4ccccc4o3)cc2)C1` is reported as 73.3% and 62.3% (normal-adjacent epithelial organoid; cell viability, CellTiter-Glo; human, patient-derived organoid; 1 µM; relative to: DMSO).
Under cross-linked residues, `SYNCRIP (Homo sapiens, UniProt O60506)` is recorded as “K363 to T193” (HNRNPD (Homo sapiens, UniProt Q14103); cross-linking MS; cell fractions; together with: DSSO).
For `CC(C)n1cnc(-c2ccc(F)cc2)c1-c1ncc(C(=O)Nc2ccc(N3CCN(C)CC3)cc2)[nH]1`, the Cholecystitis incidence was 0% (IPF patients; dose not given, all drug arms pooled).
`TRIP4 (Homo sapiens, UniProt Q15650)`: cross-linked residues “K308 to K398” (CORO1C (Homo sapiens, UniProt Q9ULV4); cross-linking MS; cell fractions; together with: DSSO).
The viability of `CNC(=O)c1cc(C(=O)N[C@H]2[C@@H]3COC[C@@H]32)cc2c1O[C@H](CF)[C@H]2c1ccccc1` is reported as 95.5% (normal-adjacent epithelial organoid; cell viability, CellTiter-Glo; human, patient-derived organoid; 1 µM; relative to: DMSO).
`KRT8 (Homo sapiens, UniProt P05787)` — result for cross-linked residues: “S258 to T327” (MAP4K3 (Homo sapiens, UniProt Q8IVH8); cross-linking MS; cell fractions; together with: DSSO).
`COc1ccc2c(c1)O[C@@H](c1ccc(OC)c(OC)c1)C[C@H]2NC(=O)C1(c2ccc3c(c2)OC(F)(F)O3)CC1` (single isomer, unassigned) has a remaining binding of 90% (ABL1 (Homo sapiens, UniProt P00519, E255K); KINOMEscan; 1 µM, E255K mutant, phosphorylated; relative to: control).

Repeated from above (block 2):
`K79T` — result for “binding free energy change”: 0.261 kcal/mol.
Under “binding free energy change”, `I103M` is recorded as -0.105 kcal/mol.
`G82P` — result for “binding free energy change”: 0.285 kcal/mol.
